Measured values from different studies.
± marks the error that the study gave.

| Structure (SMILES) | assay | test system | conditions | scale | endpoint | value |
| --- | --- | --- | --- | --- | --- | --- |
| CC1N=C(c2ccccc2F)c2cc(Br)ccc2-n2cnc(C(=O)OC3OC(CO)C(O)C(O)C3O)c21 (stereo not shown) | LC-MS/MS | Swiss Webster mouse, female, urine | oral, 750 µg parent drug, 0 to 24 h | – | cumulative excretion | 2.5 ± 0.1% |
| CN(C)C(CNC(=O)Nc1cc(C(F)(F)F)ccc1N1CCOCC1)c1ccncc1 (stereo not shown) | – | mouse, serum | intraperitoneal, 180 mg/kg single dose | – | phosphorus | 8 mg/dL |
| Cc1ccc2ccc3ccc(C)nc3c2n1.O.[99Tc+].[C-]#[O+].[C-]#[O+].[C-]#[O+] | RP-HPLC C18 column, refers to: MeCN adduct | MeCN:water 40:60, 0.1% TFA | isocratic elution | – | capacity factor | 8.9 |
| Cc1cc(Nc2nc(C[C@@]3(C(=O)O)CCN(Cc4cccc(Cl)c4F)[C@H](C)C3)cc(C)c2F)n[nH]1 | – | beagle dog, plasma | intravenous, 1 mg/kg, single dose | – | Vd | 0.559 L/kg |
| CC[C@H](C)[C@H](N)C(=O)N[C@@H](CC(N)=O)C(=O)N[C@@H](Cc1c[nH]cn1)C(=O)N[C@H](C(=O)NCC(=O)NCC(=O)N[C@H](C(=O)NCC(=O)NCC(=O)N[C@@H](C)C(=O)N[C@H](C(=O)N[C@@H](CCSC)C(=O)N[C@@H](C)C(=O)N1CCC[C@H]1C(=O)N[C@H](C(=O)N[C@@H](C)C(=O)N[C@H](C(=O)N[C@H](C(=O)N[C@@H](CCCNC(=N)N)C(=O)N[C@@H](CCC(N)=O)C(=O)N[C@@H](CC(C)C)C(=O)N[C@H](C(=O)NCC(=O)NCC(=O)N[C@@H](CS)C(=O)NCC(=O)NCC(=O)NCC(=O)N[C@@H](CCCCN)C(=O)N[C@@H](CCC(=O)O)C(=O)N[C@H](C(=O)N[C@@H](C)C(=O)N[C@@H](C)C(=O)N[C@@H](C)C(=O)N[C@@H](CCCCN)C(=O)N[C@@H](Cc1ccccc1)C(=O)N[C@@H](CCC(=O)O)C(=O)N[C@@H](CCCNC(=N)N)C(=O)N[C@@H](CCC(N)=O)C(=O)N[C@@H](Cc1c[nH]cn1)C(=O)N[C@@H](CCSC)C(=O)N[C@@H](CC(=O)O)C(=O)N[C@@H](CO)C(=O)O)[C@@H](C)O)C(C)C)[C@@H](C)O)C(C)C)C(C)C)[C@@H](C)CC)[C@@H](C)O)C(C)C | transmission electron microscopy | phosphate buffer | 25 µM, pH 7.4 | – | particle size | 70 to 150 nm |
| CC[C@H](C)C(=O)N1CCC(NC(=O)Nc2ccc(OC(F)(F)F)c(F)c2)CC1 | – | human, fasted, plasma | oral, 8 mg, single dose, geometric least-squares mean | – | AUC(0-48h) | 1320 ng·h/mL |
| CC(C)[C@H](NC(=O)CNC(=O)[C@H](CCC(N)=O)NC(=O)[C@H](C)N)C(=O)O | – | healthy human | intravenous, 3 mg/kg single dose | reference: subjects | subjects with adverse events | 33.3% |
| COc1cc(NC(=O)C(=O)c2c(C)n(Cc3ccc(Cl)cc3)c3ccc(C)cc23)ccn1 | – | female cynomolgus monkey, plasma | oral, 10 mg/kg | – | Cmax | 545 ng/mL |
| O=C(C[P+]([Au-][Cl])(c1ccccc1)c1ccccc1)[O][Ti+2][O]C(=O)C[P+]([Au-][Cl])(c1ccccc1)c1ccccc1.c1cc[cH-]c1.c1cc[cH-]c1 | general toxicity | mouse | subcutaneous | – | MTD | 10 mg/kg/day |
| CCCCCCCC(=O)NCCCC[C@H](NC(=O)[C@H](Cc1ccccc1)NC(=O)[C@@H](CCCNC(=N)N)NC(=O)[C@@H](N)Cc1ccc(O)cc1)C(N)=O | – | CD-1 mouse, male, kidney | intravenous, 3 mg/kg, 180 min | – | tissue concentration | 631 ± 258 ng/g |
